{"data": "Measured values collected from several papers", "method": "steady-state kinetics", "B1": "LYS1 C205S/K77M (Saccharomyces cerevisiae, UniProt P38998); chain MAAVTLHLRAETKPLEARAALTPTTVKKLIAKGFKIYVEDSPQSTFNINEYRQAGAIIVPAGSWKTAPRDRIIIGLMEMPETDTFPLVHEHIQFAHCYKDQAGWQNVLMRFIKGHGTLYDLEFLENDQGRRVAAFGFYAGFAGAALGVRDWAFKQTHSDDEDLPAVSPYPNEKALVKDVTKDYKEALATGARKPTVLIIGALGRSGSGAIDLLHKVGIPDANILKWDIKETSRGGPFDEIPQADIFINCIYLSKPIAPFTNMEKLNNPNRRLRTVVDVSADTTNPHNPIPIYTVATVFNKPTVLVPTTAGPKLSVISIDHLPSLLPREASEFFSHDLLPSLELLPQRKTAPVWVRAKKLFDRHCARVKRSSRL", "B2": "enzyme Y136L/Y168I (Bradyrhizobium diazoefficiens, UniProt Q45222); chain MIQTERAVQQVLEWGRSLTGFADEHAVEAVRGGQYILQRIHPSLRGTSARTGRDPQDETLIVTFYRELALLFWLDDCNDLGLISPEQLAAVEQALGQGVPCALPGFEGCAVLRASLATLAYDRRDYAQLLDDTRCLSAALRAGHAQAVAAERWSYAEYLHNGIDSIAIANVFCCLSLLWGLDMATLRARPAFRQVLRLISAIGRLQNDLHGCDKDRSAGEADNAVILLLQRYPAMPVVEFLNDELAGHTRMLHRVMAEERFPAPWGPLIEAMAAIRVQYYRTSTSRYRSDAVRGGQRAPA", "B3": "enzyme (UniProt A0A6P1VWL4); chain QTSYQPTPDNLAARKAFQDDKFGLFIHWGVYSILGDGEWVMNQRQIPIKDYEKLPTFFNPTAFDAKEWVTMAKNAGMKYITITSKHHDGFAMYDSKVSDYDIVDRTPYKKDVLKALADECRAQGIKLFFYHSHLDWHHPDYFPRGQTGKTAGRPESGDFDKYLTYMDTQLSELLTNYGPVGGIWFDGWWDQSAHDKNDPHKTVVDWKLDRTYSLIHKLQPAALIGNNHHVAPFPGEDFQMFEKDLPGQNKTGFSGESVIGQLPLETCETMNGAWGFNIKDNRYKSTKDLVQYLVKAAGHNANFLLNVGPMPNGKIQPEFVKTLAEVGQWMQKNGETIYGTRGGPVPARDWGVTTAVGNRVFVHILNWEDRQLTLPPVSGKIRSAKLFADKSPVKVVQTPEGIVLTMNSAPSADATDTIIELEMAPEVAKK", "B4": "enzyme (UniProt A0A6P1C6J0); chain PEFDITVVIPTFKAEKTVGQCLESVLSQQGVSTEIIVVDGGSPDATISIVQSFSSTNLTIISEPDRGIYDAINKGVSRAQGGMIGVLGADDVYKPNVLSVVKENASRGVEIVAGLTLIDGQLRADEQYRPAALISGIPFGHNAMFASQEAYRKVGLYDLAYRICADAEWVHRAIKSDISCRKVEQVFVEFGTEGTSSTNPEEIIAEACSVIQRNFPFLLKEEAKYLLYGVRGWGETSRIEQILRKYGHESVLFVTALQEAFPAVET", "B5": "SCO6712 V290N/Y229F (Streptomyces coelicolor, UniProt Q9XAL8); chain AKGITARTAPAGGEVRHLKMYAEKLADGQMGYGFEKGKASVPGPLIEVNEGDTLHIEFTNTMDVRASLHVHGLDYEISSDGTAMNKSDVEPGGTRTYTWRTHKPGRRDDGTWRPGSAGYWHYHDHVVGTEHGTGGIRNGLYGPVIVRRKGDVLPDATHTIVFNDMTINNRKPHTGPDFEATVGDRVEIVMITHGEFYHTFHMHGHRWADNRTGILTGPDDPSRVIDNKITGPADSFGFQIIAGEGVGAGAWMYHCHNQSHSDMGMVGLFLVKKPDGTIPGYEPHEHGGATAKSGESGEPTGGAAAHEHEH", "B6": "ART1 (Homo sapiens, UniProt P52961); chain QSHPITRRDLFSQEIQLDMALASFDDQYAGCAAAMTAALPDLNHTEFQANQVYADSWTLASSQWQERQARWPEWSLSPTRPSPPPLGFRDEHGVALLAYTANSPLHKEFNAAVREAGRSRAHYLHHFSFKTLHFLLTEALQLLGSGQRPPRCHQVFRGVHGLRFRPAGPRATVRLGGFASASLKHVAAQQFGEDTFFGIWTCLGAPIKGYSFFPGEEEVLIPPFETFQVINASRLAQGPARIYLRALGKHSTYNCEYIKDKKCKSGPCHLDNS", "B7": "enzyme Y27L (Thermoplasma volcanium, UniProt Q978S7); chain MAFHGLVKYSDITVEGLPKIQYHGFIGNNRTAMLVAMNGYIDWGCLPNFNSNAVFSSILDKNKGGYFAIFPSDTTDVYVDQYYKEMTNVLVTEFVKNGKIILRLTDFMPDSEYGKISFPEVHRFVESFSEPIDITIDFKPTFNYGQDKPIIEKDQHGFIFTTDKESIGISSEFPLRKNSDRIFGNVKMEPRSSSWIIALYGIHHLFRTTDYKSYLRLQETTDYWRKWASSSSYAGAYHSMVMRSALALKVLFYEPTGLMVAAPTASLPEAIGGERNWDYRFTWIRDTAYVIEALSSIGYKYEATEFLYDMMDMITRDNRIRTIYSIDDSNDLEERIIDYEGYRGSRPVRIGNKAVDQLQIDQYGSIVRAIHSMAKAGGIVNSYLWDFVEQVMAKIEYLWKYPDSSIWEFRTEPKQYVYSKVMSWAAFDSAISMAKDLGLSAPIKQWKSIQDEIKKEVLEKGFDTDTNSFVQYYGSKNIDAALLRLPILGFIPANDEKFLGTLSRIEKELMVDGYLFKRYREDDGLKGDEGSFLMLTFWYIEDLILMKRLKKAREVLESVLEKANHLGLYSEEIDEKSGDFLGNFPQALSHLGVIRVAPKLEEALLKRTSKINS", "B8": "enzyme (Mus musculus, UniProt P60334); chain MERTELLKPRTLADLIRILHELFAGDEVNVEEVQAVLEAYESNPAEWALYAKFDQYRYTRNLVDQGNGKFNLMILCWGEGHGSSIHDHTDSHCFLKLLQGNLKETLFDWPDKKSNEMIKKSERTLRENQCAYINDSIGLHRVENVSHTEPAVSLHLYSPPFDTCHAFDQRTGHKNKVTMTFHSKFGIRTPFTTSGSLENN", "B9": "enzyme H130A (Salinispora arenicola, UniProt A8M783); chain MASTPWISFTTDYGLADGFVAACHGVLARLAPTARVIDVTHLVPPGDVRRGAAVLAQTVPYLPAAVHVAVVDPGVGTARRAIALTAGNGLLVGPDNGLLLDAATALGGVDAAVELTNPDWLGARMSATFAGRDVFAPVAARLALGAPLADAGPAVEPGALVRLPTPLVQPETDGFTAEVLTVDHFGNVQLAATGALLESLPRSLRVAHRPAVHARTFDDAPPGGLLVHVDSAGLVAVAVNGGRAADLLAVTPGDQLRVTAG", "B10": "GapA (Pseudomonas putida, UniProt Q88P44); chain MTLRIAINGFGRIGRNVLRALYTQGYRQDLQVVAINDLGDSTMNAHLLKYDSVHGTFDATVEADHESLTVNGDRIAVSAIRNPAELPWKAEAIDVVFECTGLFTDRAKAAAHLAAGAGKVIVSAPAKGADATVVYGVNHDILRASHQIISNASCTTNCLAPIAQVLHREFGIEQGLMTTIHAYTNDQVLTDVYHSDPYRARSATQSMIPSKTGAAEAVGLVLPELAGKLTGMAVRVPVINVSLVDLTVNLKREATAEQVNQLFLEASKHSKVLGYNALPLVSCDFNHNPLSSIFDANHTRANGRMLKVLAWYDNEWGFSNRMLDNCLALHRAG", "note": "Lines come from different studies, so protocols differ. ± marks the error that the study gave.", "sequence of UniProt P11446 (whole entry, looked up)": "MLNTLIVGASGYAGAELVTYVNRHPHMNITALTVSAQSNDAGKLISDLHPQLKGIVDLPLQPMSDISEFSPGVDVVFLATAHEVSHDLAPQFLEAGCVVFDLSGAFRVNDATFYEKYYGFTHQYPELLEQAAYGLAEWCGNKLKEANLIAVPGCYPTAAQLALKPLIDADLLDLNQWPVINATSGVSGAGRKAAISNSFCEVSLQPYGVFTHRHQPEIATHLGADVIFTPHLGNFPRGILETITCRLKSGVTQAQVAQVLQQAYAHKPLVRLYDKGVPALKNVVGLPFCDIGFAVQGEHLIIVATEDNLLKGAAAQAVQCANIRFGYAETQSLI", "sequence of UniProt Q8ZKF6 (whole entry, looked up)": "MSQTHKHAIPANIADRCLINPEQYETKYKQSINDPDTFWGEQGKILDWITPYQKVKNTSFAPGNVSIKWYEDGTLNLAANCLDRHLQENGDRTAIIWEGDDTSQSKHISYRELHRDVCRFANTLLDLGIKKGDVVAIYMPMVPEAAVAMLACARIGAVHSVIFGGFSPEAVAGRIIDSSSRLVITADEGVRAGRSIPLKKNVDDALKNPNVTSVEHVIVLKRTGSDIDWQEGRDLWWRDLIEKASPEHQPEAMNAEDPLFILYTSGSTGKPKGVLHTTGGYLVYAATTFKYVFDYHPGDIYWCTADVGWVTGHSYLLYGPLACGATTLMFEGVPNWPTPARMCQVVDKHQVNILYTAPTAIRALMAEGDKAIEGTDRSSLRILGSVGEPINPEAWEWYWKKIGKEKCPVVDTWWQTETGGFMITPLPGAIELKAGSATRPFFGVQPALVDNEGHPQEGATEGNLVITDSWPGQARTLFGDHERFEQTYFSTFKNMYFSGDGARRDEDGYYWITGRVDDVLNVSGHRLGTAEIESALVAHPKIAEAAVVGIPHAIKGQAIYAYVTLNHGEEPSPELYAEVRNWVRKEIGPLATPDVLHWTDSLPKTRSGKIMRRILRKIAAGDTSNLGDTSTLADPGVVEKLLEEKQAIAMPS", "sequence of UniProt P78804 (whole entry, looked up)": "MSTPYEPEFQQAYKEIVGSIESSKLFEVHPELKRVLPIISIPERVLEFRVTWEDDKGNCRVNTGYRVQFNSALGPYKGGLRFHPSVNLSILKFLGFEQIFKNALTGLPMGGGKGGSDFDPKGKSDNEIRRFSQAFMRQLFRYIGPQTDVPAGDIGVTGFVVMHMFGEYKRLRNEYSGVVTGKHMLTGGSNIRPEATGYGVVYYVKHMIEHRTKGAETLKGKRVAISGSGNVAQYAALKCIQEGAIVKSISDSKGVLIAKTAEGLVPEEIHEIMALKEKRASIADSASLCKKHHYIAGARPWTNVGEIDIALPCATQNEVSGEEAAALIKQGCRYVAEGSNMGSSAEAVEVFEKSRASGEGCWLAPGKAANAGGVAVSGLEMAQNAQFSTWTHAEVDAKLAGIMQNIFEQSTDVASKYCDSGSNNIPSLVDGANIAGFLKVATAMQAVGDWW", "sequence of UniProt Q5JHM5 (whole entry, looked up)": "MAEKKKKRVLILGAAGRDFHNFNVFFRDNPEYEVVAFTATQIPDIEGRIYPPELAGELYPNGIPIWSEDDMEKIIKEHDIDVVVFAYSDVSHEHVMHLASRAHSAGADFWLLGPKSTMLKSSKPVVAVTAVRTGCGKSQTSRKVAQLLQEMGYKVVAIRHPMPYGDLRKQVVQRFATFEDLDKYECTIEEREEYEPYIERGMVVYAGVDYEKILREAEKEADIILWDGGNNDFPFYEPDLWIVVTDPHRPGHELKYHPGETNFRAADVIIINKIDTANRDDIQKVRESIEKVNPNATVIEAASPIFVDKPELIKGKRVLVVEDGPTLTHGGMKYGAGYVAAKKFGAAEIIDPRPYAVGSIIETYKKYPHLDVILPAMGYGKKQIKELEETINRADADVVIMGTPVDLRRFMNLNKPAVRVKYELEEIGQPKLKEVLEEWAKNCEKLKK"}
{"Molecule": "B1 (LYS1 C205S/K77M)", "substrate": "NCCCC[C@H](N)C(=O)O", "pH": "pH 7", "temperature": "25 °C", "together with": "NADH 0.5 mM", "kcat [s⁻¹]": "0.73 ± 0.02"}
{"Molecule": "B2 (enzyme Y136L/Y168I)", "substrate": "C=C1CC[C@@H]2C(C)(C)CCC[C@@]2(C)[C@@H]1CC/C(C)=C/COP(=O)(O)OP(=O)(O)O", "kcat [s⁻¹]": "0.09 ± 0.00433"}
{"Molecule": "enzyme (Roseiflexus castenholzii, UniProt A7NLX0)", "substrate": "O=C(O)CCC(=O)C1=CC=C[C@@H](O)[C@@H]1C(=O)O", "pH": "pH 8", "temperature": "25 °C", "kcat [s⁻¹]": "55 ± 2"}
{"Molecule": "B3 (enzyme)", "substrate": "C[C@@H]1O[C@@H](Oc2ccc([N+](=O)[O-])cc2Cl)[C@@H](O)[C@H](O)[C@@H]1O", "pH": "pH 6.4", "temperature": "37 °C", "kcat [s⁻¹]": 70.7}
{"Molecule": "B4 (enzyme)", "substrate": "C[C@@H]1O[C@H](OP(=O)(O)OP(=O)(O)OC[C@H]2O[C@@H](n3cnc4c(=O)[nH]c(N)nc43)[C@H](O)[C@@H]2O)[C@@H](O)[C@H](O)[C@@H]1O", "pH": "pH 7.5", "temperature": "25 °C", "notes": "apparent", "kcat [s⁻¹]": "4.1 ± 0.15"}
{"Molecule": "enzyme (UniProt A0A097IUD8)", "substrate": "C=C(OP(=O)(O)O)C(=O)O", "pH": "pH 6", "temperature": "25 °C", "together with": "2 mM ADP", "kcat [s⁻¹]": "31.7 ± 1"}
{"Molecule": "gdh E198G/N97F (Bacillus subtilis)", "substrate": "NC(=O)c1ccc[n+]([C@@H]2O[C@H](COP(=O)(O)OP(=O)(O)OC[C@H]3O[C@@H](n4cnc5c(N)ncnc54)[C@H](O)[C@@H]3O)[C@@H](O)[C@H]2O)c1", "pH": "pH 7", "temperature": "55 °C", "kcat [s⁻¹]": "11.9 ± 0.298"}
{"Molecule": "enzyme (Thermococcus kodakarensis, UniProt Q5JHM5)", "substrate": "O=P(O)(O)O", "pH": "pH 7.5", "temperature": "80 °C", "kcat [s⁻¹]": "33 ± 0.9"}
{"Molecule": "B5 (SCO6712 V290N/Y229F)", "substrate": "CCn1c(=NN=c2sc3cc(S(=O)(=O)O)ccc3n2CC)sc2cc(S(=O)(=O)O)ccc21", "pH": "pH 7", "temperature": "37 °C", "notes": "NaCl 150 mM", "together with": "O2 cosubstrate", "kcat [s⁻¹]": "1.96 ± 0.08"}
{"Molecule": "acsA (Pseudomonas chlororaphis, UniProt Q5CD72)", "substrate": "O=C(O)CCC(F)(F)F", "pH": "pH 7", "kcat [s⁻¹]": "0.0333 ± 0.0333"}
{"Molecule": "B6 (ART1)", "substrate": "COC(=O)[C@@H](N)CCCNC(=N)N", "pH": "pH 7.5", "temperature": "25 °C", "notes": "HEPES 50 mM", "together with": "saturating NAD+", "kcat [s⁻¹]": "8 ± 0.8"}
{"Molecule": "B7 (enzyme Y27L)", "substrate": "OC[C@H]1O[C@H](O[C@H]2O[C@H](CO)[C@@H](O)[C@H](O)[C@H]2O)[C@H](O)[C@@H](O)[C@@H]1O", "pH": "pH 3.7", "temperature": "30 °C", "kcat [s⁻¹]": "2.6 ± 0.04"}
{"Molecule": "B8 (enzyme)", "substrate": "N[C@@H](CS)C(=O)O", "pH": "pH 7.5", "temperature": "37 °C", "kcat [s⁻¹]": 1.01}
{"Molecule": "B9 (enzyme H130A)", "substrate": "C[S+](CC[C@H](N)C(=O)O)C[C@H]1O[C@@H](n2cnc3c(N)ncnc32)[C@H](O)[C@@H]1O", "pH": "pH 7.9", "temperature": "37 °C", "notes": "apparent", "together with": "1-200 µM SAM", "kcat [s⁻¹]": "0.00267 ± 0.000167"}
{"Molecule": "argC (Escherichia coli, UniProt P11446)", "substrate": "N[C@@H](CCC=O)C(=O)O", "pH": "pH 7.6", "notes": "apparent", "together with": "1 mM NADP+", "kcat [s⁻¹]": "0.008 ± 0.002"}
{"Molecule": "HNL C81L/E79H/G176S/H103V/K236M/N104A/T11G (Hevea brasiliensis)", "substrate": "CC(=O)Oc1ccc([N+](=O)[O-])cc1", "pH": "pH 7.2", "temperature": "21 °C", "kcat [s⁻¹]": "0.00983 ± 0.00233"}
{"Molecule": "enzyme M50A (Homo sapiens, UniProt Q08623)", "substrate": "O=c1[nH]cc([C@@H]2O[C@H](COP(=O)(O)O)[C@@H](O)[C@H]2O)c(=O)[nH]1", "pH": "pH 7", "temperature": "25 °C", "kcat [s⁻¹]": 0.333}
{"Molecule": "acs (Salmonella enterica, UniProt Q8ZKF6)", "substrate": "CCC(=O)O", "pH": "pH 7", "temperature": "30 °C", "notes": "apparent", "kcat [s⁻¹]": 3.7}
{"Molecule": "enzyme (Acinetobacter baumannii, UniProt A0A5P1UDB1)", "substrate": "O=C(O)c1cccc(O)c1O", "pH": "pH 7.5", "temperature": "37 °C", "notes": "apparent", "kcat [s⁻¹]": "0.0195 ± 0.0008"}
{"Molecule": "B10 (GapA)", "substrate": "O=C[C@H](O)COP(=O)(O)O", "together with": "NAD+", "kcat [s⁻¹]": "31.9 ± 0.4"}
{"Molecule": "enzyme (Schizosaccharomyces pombe, UniProt P78804)", "substrate": "NC(=O)c1ccc[n+]([C@@H]2O[C@H](COP(=O)(O)OP(=O)(O)OC[C@H]3O[C@@H](n4cnc5c(N)ncnc54)[C@H](O)[C@@H]3O)[C@@H](O)[C@H]2O)c1", "pH": "pH 7", "temperature": "30 °C", "notes": "apparent", "kcat [s⁻¹]": "0.0073 ± 0.0003"}
{"note": "Some of these lines once more:"}
{"Molecule": "B9 (enzyme H130A)", "substrate": "C[S+](CC[C@H](N)C(=O)O)C[C@H]1O[C@@H](n2cnc3c(N)ncnc32)[C@H](O)[C@@H]1O", "pH": "pH 7.9", "temperature": "37 °C", "notes": "apparent", "together with": "1-200 µM SAM", "kcat [s⁻¹]": "0.00267 ± 0.000167"}
{"Molecule": "argC (Escherichia coli, UniProt P11446)", "substrate": "N[C@@H](CCC=O)C(=O)O", "pH": "pH 7.6", "notes": "apparent", "together with": "1 mM NADP+", "kcat [s⁻¹]": "0.008 ± 0.002"}
